Published values gathered from unrelated publications.
Each line is one published result; not all experiments were run side by side. “And” joins repeats or separate records; there may be more than shown.
Target: Serine/threonine-protein kinase MARK2 (MARK2, Homo sapiens, UniProt Q7KZI7)

CCn1cc(C(=O)O)c(=O)c2c(N)c(F)c(NC3CCCCC3)cc21 gave an inhibition of -1.7% (kinase activity; 0.1 µM, added: ATP at Km).
For Cc1ccc(-c2c(/C=C(\C#N)C(=O)NC(C)C)n(CCCO)c3ncnc(N)c23)cc1, the remaining binding was 77% (cell-free assay, competition with immobilised ligand; 1 µM).
CNC1C[S+]2CC[S+]3CC[S+](C1)[Ru-4]321([N]=C=S)[n]2c3ccc(OC)cc3c3c4c(c5cc(F)c[n+]1c5c32)C(=O)NC4=O (stereo not drawn) has a remaining binding of 38% (KinomeScan; 0.1 µM; relative to: untreated).
With Nc1ncc(-c2cc(-c3cnn(CC(F)(F)F)c3)ncc2F)nc1C(=O)NC1CNCC(F)C1 (stereo not drawn) the remaining activity was 98.9% (enzyme activity; 1 µM; relative to: DMSO control).
C=CC(=O)N1Cc2nc(-c3cc(-c4cc(Cl)cnc4Cl)c(F)cc3F)n(-c3ccncn3)c2C1 has an inhibition of 4.5% (cell-free assay, inhibitor; 1 µM).
NC(=O)[C@@H](O)C[C@H]1CCc2sc3ncnc(O[C@H]4CC[C@H](N5CCOCC5)CC4)c3c21 has an inhibition of 2% (enzyme activity, inhibitor; 10 µM).
With Cc1cnc2nc1Nc1cccc(c1)COC/C=C/COCc1cc(ccc1OCCN1CCOCC1)N2 the remaining binding was 70% (binding; 0.1 µM).
COc1c(OCCCN2CCOCC2)ccc2c1N=C(NC(=O)c1cnc(N)nc1)N1CCN=C21 has a remaining activity of 92% (kinase activity, inhibitor; 1 µM; relative to: untreated control).
CNC(=O)C[C@H](Cc1ccc(C#N)cc1)NC(=O)c1cc(-c2ccc(CN[C@H](C)c3ccc(C)cc3)o2)ccc1Cl — result for “activity vs control”: 102% (enzyme activity, inhibitor; 1 µM).
With Nc1ncc2c(n1)-c1c([nH]c3ccc(C4=CCOCC4)cc13)CCC2 the remaining binding was 89% (binding, competition with immobilised ligand; 1 µM).
C=CC(=O)Nc1cccc(-c2cnc3[nH]cc(C(=O)NC(C)(C)C)c3n2)c1 has an inhibition of 42% (enzyme activity, inhibitor; 0.1 µM).
For Cc1cccc(O[C@H]2CCC[C@@H](C(C)CNCc3ccncc3)C2)c1 (relative stereo), the inhibition was 0% (enzyme activity, inhibitor; 1 µM).
COCC12C(=O)NC3C4(C(OC)CC1O)C1CC5(O)C(OC)C(O)C(OC(C)=O)(C1C5OC(=O)c1ccccc1)C3(O)C(OC)C24 (stereo not drawn) gave a remaining activity of 93% and 87% (kinase activity, inhibitor, ProQinase kinase profiling; 25 µM; relative to: control).
For COc1cc(Nc2nc(C)cc(-c3cnn4nc(OC)ccc34)n2)cc(C(F)(F)F)c1, the remaining activity was 77% (inhibitor; 1 µM; relative to: control).
With CN1CCN(Cc2ccc(-c3ccc(CO[C@H]4CCC[C@@H]4NC(=O)c4cc(-c5cnn(C)c5)cnc4N)cc3)cc2)CC1 the inhibition was 3% (enzyme activity, inhibitor; 0.1 µM).

Repeated from above:
CCn1cc(C(=O)O)c(=O)c2c(N)c(F)c(NC3CCCCC3)cc21 gave an inhibition of -1.7% (kinase activity; 0.1 µM, added: ATP at Km).
